# Measurements pooled from the literature.
# A part holds a random share of what one study measured. Substitutions count along the parent as printed.
# Chain of UniProt P46734 (whole entry, looked up): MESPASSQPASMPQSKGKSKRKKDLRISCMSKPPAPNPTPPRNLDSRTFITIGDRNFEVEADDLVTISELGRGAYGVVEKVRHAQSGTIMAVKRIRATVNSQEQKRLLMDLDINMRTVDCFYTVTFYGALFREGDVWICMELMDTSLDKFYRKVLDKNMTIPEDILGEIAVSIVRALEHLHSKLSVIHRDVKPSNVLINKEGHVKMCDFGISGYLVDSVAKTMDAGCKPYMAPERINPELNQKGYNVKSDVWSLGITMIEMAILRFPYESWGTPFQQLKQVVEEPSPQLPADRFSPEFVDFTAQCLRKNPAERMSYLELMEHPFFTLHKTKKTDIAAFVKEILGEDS
# Chain of UniProt P06241 (whole entry, looked up): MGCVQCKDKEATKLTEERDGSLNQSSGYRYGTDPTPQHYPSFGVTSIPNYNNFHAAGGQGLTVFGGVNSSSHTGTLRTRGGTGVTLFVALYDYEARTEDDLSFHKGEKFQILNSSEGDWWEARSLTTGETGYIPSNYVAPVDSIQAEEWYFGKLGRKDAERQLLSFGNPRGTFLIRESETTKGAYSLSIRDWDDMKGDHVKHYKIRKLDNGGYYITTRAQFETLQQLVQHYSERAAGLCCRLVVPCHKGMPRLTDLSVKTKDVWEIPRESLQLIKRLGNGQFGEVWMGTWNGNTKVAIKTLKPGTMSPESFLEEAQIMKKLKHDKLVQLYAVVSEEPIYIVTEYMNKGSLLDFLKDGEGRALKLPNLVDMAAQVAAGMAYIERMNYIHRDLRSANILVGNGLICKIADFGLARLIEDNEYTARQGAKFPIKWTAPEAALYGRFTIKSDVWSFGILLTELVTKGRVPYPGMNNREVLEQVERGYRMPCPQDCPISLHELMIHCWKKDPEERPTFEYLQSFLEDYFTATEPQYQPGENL
# Chain of UniProt P23458 (whole entry, looked up): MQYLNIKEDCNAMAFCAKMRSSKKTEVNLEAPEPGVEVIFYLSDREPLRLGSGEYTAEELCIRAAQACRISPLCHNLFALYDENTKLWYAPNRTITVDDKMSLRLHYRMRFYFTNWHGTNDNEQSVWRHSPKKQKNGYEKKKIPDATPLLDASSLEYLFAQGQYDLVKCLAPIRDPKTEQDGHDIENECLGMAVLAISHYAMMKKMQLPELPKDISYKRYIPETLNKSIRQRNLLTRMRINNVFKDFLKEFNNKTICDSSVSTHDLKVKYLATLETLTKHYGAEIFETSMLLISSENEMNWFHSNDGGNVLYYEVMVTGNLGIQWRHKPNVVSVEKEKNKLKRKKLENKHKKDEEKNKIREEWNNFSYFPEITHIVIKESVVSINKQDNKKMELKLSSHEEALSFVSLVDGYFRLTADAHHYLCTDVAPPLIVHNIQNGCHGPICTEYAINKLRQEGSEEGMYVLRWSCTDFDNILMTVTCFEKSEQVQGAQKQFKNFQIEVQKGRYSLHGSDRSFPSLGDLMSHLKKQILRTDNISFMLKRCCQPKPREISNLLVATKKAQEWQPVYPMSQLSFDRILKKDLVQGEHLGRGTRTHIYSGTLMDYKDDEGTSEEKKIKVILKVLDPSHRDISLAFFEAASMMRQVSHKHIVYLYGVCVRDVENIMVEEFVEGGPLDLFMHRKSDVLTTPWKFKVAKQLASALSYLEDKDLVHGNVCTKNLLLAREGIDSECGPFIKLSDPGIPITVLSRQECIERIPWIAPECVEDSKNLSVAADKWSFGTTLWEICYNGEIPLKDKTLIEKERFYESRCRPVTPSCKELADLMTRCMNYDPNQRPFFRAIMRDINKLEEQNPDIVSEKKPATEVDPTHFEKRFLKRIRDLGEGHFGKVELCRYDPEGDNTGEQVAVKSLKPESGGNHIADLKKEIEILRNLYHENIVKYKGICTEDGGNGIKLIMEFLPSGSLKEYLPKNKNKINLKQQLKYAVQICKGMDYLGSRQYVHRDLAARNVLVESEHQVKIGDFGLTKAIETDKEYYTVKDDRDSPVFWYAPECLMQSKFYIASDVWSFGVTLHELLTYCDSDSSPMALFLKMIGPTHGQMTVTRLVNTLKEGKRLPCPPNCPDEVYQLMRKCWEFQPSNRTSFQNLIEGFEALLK
# Chain of UniProt P22607 (whole entry, unmodified, looked up): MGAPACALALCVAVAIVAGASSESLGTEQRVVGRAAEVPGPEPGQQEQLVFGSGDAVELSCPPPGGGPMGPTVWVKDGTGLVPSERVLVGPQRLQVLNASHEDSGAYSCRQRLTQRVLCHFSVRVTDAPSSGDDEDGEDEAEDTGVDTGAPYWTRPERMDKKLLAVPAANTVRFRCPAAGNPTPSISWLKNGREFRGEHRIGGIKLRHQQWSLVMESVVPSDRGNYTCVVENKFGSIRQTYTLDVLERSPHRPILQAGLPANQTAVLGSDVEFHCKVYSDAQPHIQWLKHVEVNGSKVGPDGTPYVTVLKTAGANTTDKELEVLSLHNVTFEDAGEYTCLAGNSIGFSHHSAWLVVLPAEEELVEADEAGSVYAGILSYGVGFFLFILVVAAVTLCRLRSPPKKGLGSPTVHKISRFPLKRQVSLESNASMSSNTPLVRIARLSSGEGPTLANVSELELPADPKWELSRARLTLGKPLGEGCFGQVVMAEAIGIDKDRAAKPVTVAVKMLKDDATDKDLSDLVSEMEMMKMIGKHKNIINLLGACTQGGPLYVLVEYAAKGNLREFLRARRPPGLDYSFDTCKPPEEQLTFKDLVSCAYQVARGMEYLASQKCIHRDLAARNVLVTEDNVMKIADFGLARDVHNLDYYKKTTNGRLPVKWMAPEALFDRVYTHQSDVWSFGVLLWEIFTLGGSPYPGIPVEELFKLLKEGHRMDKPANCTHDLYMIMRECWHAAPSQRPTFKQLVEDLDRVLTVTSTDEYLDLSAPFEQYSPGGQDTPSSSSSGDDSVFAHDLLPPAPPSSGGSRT
# Chain of UniProt Q9UF33 (whole entry, looked up): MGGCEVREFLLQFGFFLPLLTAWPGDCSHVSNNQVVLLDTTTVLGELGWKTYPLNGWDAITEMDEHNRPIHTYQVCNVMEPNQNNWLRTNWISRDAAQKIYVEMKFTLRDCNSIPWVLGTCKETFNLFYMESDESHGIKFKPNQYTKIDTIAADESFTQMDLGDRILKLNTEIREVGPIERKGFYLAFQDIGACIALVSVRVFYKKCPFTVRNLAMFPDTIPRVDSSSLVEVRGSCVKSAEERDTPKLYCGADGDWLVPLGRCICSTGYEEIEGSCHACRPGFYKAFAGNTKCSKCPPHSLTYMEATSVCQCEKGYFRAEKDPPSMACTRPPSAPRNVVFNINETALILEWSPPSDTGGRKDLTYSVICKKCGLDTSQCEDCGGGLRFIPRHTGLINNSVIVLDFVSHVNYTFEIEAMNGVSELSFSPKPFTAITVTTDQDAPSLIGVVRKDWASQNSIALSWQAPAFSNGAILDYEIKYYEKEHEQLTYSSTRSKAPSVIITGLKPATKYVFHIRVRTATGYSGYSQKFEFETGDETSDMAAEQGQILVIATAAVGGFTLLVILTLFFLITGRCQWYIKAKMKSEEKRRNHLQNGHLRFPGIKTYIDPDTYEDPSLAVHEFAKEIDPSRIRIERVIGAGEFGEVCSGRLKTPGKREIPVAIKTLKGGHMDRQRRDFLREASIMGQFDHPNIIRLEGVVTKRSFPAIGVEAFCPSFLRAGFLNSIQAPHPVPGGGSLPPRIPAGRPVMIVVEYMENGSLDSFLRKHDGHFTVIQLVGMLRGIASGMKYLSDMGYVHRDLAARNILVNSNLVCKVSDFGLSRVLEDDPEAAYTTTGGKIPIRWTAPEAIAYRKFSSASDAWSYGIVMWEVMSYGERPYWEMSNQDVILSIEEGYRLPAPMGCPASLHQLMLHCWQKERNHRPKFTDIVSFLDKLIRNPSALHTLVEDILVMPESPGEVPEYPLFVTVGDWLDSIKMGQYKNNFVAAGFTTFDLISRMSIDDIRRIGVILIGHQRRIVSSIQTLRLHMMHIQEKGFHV
# Chain of UniProt P48736 (whole entry, looked up): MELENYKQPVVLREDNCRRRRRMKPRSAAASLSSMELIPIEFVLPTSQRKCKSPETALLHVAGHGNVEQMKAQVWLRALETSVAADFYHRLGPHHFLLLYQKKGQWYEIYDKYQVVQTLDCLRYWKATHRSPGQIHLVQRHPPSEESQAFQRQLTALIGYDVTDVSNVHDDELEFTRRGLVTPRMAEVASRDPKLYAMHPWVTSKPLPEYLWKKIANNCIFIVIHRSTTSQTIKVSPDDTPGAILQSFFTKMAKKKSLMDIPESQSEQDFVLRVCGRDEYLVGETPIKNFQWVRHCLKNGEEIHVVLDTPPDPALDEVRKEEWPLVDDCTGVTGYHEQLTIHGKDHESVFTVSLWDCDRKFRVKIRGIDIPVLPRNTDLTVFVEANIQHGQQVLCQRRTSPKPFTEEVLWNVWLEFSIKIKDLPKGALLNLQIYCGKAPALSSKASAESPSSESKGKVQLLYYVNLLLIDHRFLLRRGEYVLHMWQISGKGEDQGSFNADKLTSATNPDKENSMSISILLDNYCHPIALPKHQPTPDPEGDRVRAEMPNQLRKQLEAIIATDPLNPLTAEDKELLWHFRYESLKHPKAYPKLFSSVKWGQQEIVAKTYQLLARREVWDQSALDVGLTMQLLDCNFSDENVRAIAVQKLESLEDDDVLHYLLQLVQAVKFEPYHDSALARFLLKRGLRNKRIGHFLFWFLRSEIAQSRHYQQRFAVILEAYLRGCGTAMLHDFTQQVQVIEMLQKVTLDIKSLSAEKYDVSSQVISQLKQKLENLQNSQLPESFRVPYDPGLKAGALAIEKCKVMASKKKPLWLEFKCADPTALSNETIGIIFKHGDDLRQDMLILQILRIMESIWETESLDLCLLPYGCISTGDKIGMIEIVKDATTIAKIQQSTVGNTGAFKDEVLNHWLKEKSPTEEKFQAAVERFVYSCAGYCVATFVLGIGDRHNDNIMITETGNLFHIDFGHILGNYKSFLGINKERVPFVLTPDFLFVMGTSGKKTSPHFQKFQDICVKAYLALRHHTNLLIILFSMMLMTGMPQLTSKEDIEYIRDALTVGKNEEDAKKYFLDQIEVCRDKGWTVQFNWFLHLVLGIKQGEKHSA

# Set 1
# Cell line: mouse MPNST tumor cells
# Technique: high-content nuclear imaging
# Refers to: cell number
# Tested at: 10 µM
# Time: 12 h
# Setting: mean of 2 replicates
# Relative to: plate mean
# Reading: higher = more cells
SMILES,nuclei count
CN1CCN2c3ccccc3Cc3ccccc3C2C1 (stereo not drawn),-1.94 z-score
NC(N)=Nc1nc(CSCC/C(N)=N/S(N)(=O)=O)cs1,2.78 z-score
CC[C@@H]1Cn2c(c3nc(-c4cc(Cl)cc(Cl)c4Cl)nc-3n(C)c2=O)N1,-0.591 z-score
O=C(O)Cc1sc(-c2ccccc2)nc1-c1ccc(Cl)cc1,-0.0629 z-score
CN(C)[C@H]1CN(C2CCc3cccc(F)c32)C[C@@H]1c1ccc(N2CCN(S(C)(=O)=O)CC2)cc1 (stereo partly drawn),0.804 z-score

# Set 2
# SMILES: O=C(Nc1ccc(Oc2ccc(F)cc2)cc1)N1CCc2ncccc2[C@H]1c1ccc(F)cc1
# Technique: competition with immobilised ligand
# Tested at: 1 µM
target,assay,remaining binding [%]
"Serine/threonine-protein kinase pim-3 (PIM3, Homo sapiens, UniProt Q86V86)",cell-free assay,79
"5'-AMP-activated protein kinase catalytic subunit alpha-2 (PRKAA2, Homo sapiens, UniProt P54646)",cell-free assay,51
"Tyrosine-protein kinase ABL1, phosphorylated (ABL1, Homo sapiens, UniProt P00519, T315I)",cell-free assay,85
"Tyrosine-protein kinase ABL1, phosphorylated (ABL1, Homo sapiens, UniProt P00519, F317L)",cell-free assay,86
"Ribosomal protein S6 kinase alpha-5, N-terminal kinase domain (RPS6KA5, Homo sapiens, UniProt O75582)",cell-free assay,95
"Peripheral plasma membrane protein CASK (CASK, Homo sapiens, UniProt O14936)",cell-free assay,100
"Serine/threonine-protein kinase NIM1 (NIM1K, Homo sapiens, UniProt Q8IY84)",cell-free assay,80
"Dual specificity mitogen-activated protein kinase kinase 3 (MAP2K3, Homo sapiens, UniProt P46734)",cell-free assay,88
"Tyrosine-protein kinase ABL1, phosphorylated (ABL1, Homo sapiens, UniProt P00519, E255K)",binding,100
"Phosphatidylinositol 4,5-bisphosphate 3-kinase catalytic subunit gamma isoform (PIK3CG, Homo sapiens, UniProt P48736)",cell-free assay,87
"Mitogen-activated protein kinase 9 (MAPK9, Homo sapiens, UniProt P45984)",cell-free assay,88
"Tyrosine-protein kinase JAK1, JH1 (JAK1, Homo sapiens, UniProt P23458)",cell-free assay,94
"Ephrin type-A receptor 6 (EPHA6, Homo sapiens, UniProt Q9UF33)",cell-free assay,100
"Tyrosine-protein kinase Fyn (FYN, Homo sapiens, UniProt P06241)",cell-free assay,89
"Serine/threonine-protein kinase Nek9 (NEK9, Homo sapiens, UniProt Q8TD19)",cell-free assay,88
"Proto-oncogene tyrosine-protein kinase ROS (ROS1, Homo sapiens, UniProt P08922)",cell-free assay,76
"Fibroblast growth factor receptor 3 (FGFR3, Homo sapiens, UniProt P22607, G697C)",cell-free assay,100

# Set 3
# Cell line: A-375
# Tested at: 100 µM
# Time: 36 h
Structure (SMILES),viability
CC(=O)O[C@]1(C(C)=O)CC[C@H]2[C@@H]3C=C(Cl)C4=CC(=O)CC[C@]4(C)[C@H]3CC[C@@]21C,17.9%
Nc1nc2c(ncn2CCC(CO)CO)c(=O)[nH]1,95%
Cc1cc(C)cc(OCC2CNC(=O)O2)c1 (stereo not drawn),117%
CN(C)CCC(c1ccc(Cl)cc1)c1ccccn1 (stereo not drawn),106%

# Set 4
# Species: mouse
# Matrix: microsomes or S9
# Tested at: 2 µM
# Time: 0.5 h
SMILES,remaining compound [%]
N=c1n(CCN2CCCCC2)c2ccccc2n1CC(O)c1ccccc1 (stereo not drawn),25.7
Cn1ccnc1COC(=O)c1cc(C(C)(C)C)n[nH]1,0.0785
COc1ccccc1C(CC(=O)NCCN(C)C)C(C)C (stereo not drawn),0.15
CCCS(=O)(=O)c1nc2ccc(NS(=O)(=O)c3ccc(F)c(Cl)c3)cc2s1,< 1
COC(=O)c1cc(Cl)ccc1C1CCN(CCN2CCc3ccccc3C2=O)CC1,0.668

# Set 5
# Target: ABI1, truncated, D143A, DHFR fusion (Arabidopsis thaliana)
# Technique: DHFR PCA, deep sequencing
# Matrix: yeast
# Setting: methotrexate growth selection, single substitutions
# With: (+)-ABA 1.4 µM
# Relative to: wild-type fitted maximum
# Reading: higher = stronger binding
# Starting sequence: PYL1, truncated, DHFR fusion (Arabidopsis thaliana); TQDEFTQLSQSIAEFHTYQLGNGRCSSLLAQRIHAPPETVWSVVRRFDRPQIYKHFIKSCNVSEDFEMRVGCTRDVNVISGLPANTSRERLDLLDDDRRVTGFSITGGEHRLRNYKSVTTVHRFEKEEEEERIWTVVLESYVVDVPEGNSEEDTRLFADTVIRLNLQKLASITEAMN
Variant,relative binding score [%]
S150H,4.55
V121Y,-11.5
S150Y,-23.7
D159T,-9.73
T17F,-14.9
E109G,14.3
E4M,64.2
L138F,43.7
